Published values collected from several papers.
Each numbered part is a random draw from the data of one study; scales do not carry over between parts. Values joined by “and” are separate records of one study, mostly repeats; a detail may differ.

Block 1 — cell line: normal organoid sample D; technique: CellTiter-Glo; species: human; medium: normal-adjacent epithelium; tested at: 1 µM; relative to: DMSO
Compound	viability
C[C@@H](c1cccc(C#N)c1)n1cc(Cl)cc(C(N)=O)c1=N	109% and 140%
COc1cc(-c2cn(C3CCc4c(F)cccc4N(CC(F)(F)F)C3=O)nn2)ccc1-n1cnc(C)c1 (stereo not drawn)	138% and 99.8%
CO[C@H]1CC[C@H](CNc2ccc(S(=O)(=O)NC(=O)c3ccc(N4CCN(CC5=C(c6ccc(Cl)cc6)CC(C)(C)CC5)CC4)cc3Oc3cnc4[nH]ccc4c3)cc2[N+](=O)[O-])CC1	102% and 149%
CN1CCN(Cc2ccc(Nc3ncc(Cl)c(Nc4ccccc4S(=O)(=O)N(C)C)n3)cc2)CC1	2.8% and 2.1%
Cn1cncc1[C@](O)(COc1ccc(C#N)cc1-c1ccc(OC(F)(F)F)cc1)c1ccc(C#N)cc1	56% and 49.6%

Block 2 — effect on: enzyme activity; mode: inhibitor; tested at: 0.5 µM; relative to: control
Target: Protein-tyrosine kinase 2-beta (PTK2B, Homo sapiens, UniProt Q14289)
UniProt Q14289, sequence (whole entry, looked up): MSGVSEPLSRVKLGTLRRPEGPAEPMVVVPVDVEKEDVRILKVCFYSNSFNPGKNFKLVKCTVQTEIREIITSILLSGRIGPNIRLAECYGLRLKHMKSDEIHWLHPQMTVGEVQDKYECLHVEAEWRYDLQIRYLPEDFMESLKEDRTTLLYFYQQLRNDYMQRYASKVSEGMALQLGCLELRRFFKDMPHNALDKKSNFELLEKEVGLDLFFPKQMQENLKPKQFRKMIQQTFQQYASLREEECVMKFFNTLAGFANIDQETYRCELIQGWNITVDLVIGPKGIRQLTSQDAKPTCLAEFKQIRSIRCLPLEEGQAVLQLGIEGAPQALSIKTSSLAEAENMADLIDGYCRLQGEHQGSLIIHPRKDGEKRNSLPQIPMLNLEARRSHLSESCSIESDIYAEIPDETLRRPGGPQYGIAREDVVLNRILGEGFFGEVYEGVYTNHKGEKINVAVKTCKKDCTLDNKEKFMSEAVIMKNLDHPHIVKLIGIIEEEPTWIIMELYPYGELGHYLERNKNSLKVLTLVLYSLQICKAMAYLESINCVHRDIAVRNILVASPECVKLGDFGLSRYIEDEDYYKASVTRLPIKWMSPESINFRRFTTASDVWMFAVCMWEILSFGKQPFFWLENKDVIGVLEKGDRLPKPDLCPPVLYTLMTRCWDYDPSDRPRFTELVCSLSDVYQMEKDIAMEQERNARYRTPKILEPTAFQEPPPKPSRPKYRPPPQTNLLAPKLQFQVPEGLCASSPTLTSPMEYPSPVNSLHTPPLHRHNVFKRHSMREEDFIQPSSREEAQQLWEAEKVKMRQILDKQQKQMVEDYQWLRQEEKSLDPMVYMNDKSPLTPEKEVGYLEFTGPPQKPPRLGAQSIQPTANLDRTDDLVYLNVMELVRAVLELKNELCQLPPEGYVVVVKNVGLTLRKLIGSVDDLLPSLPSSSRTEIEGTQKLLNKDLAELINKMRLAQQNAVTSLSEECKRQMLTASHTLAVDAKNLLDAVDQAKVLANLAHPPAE
Compound	remaining activity
COc1ccc2c(c1)c(C1=C(c3c[nH]c4ccccc34)C(=O)NC1=O)cn2CCCN(C)C	104%
O=C1NC(=O)/C(=C/c2ccc3c(c2)OC(F)(F)O3)S1	110%
O=C1NC(=O)c2c1c1c3ccccc3[nH]c1n1cncc21	70.1%
O=C1Nc2ccccc2/C1=C\c1c(Cl)[nH]c2ccccc12	95.5%
COc1cccc(-c2cc(=O)c3ccccc3o2)c1N	91.2%
Cc1cc(Nc2cc(N3CCN(C)CC3)nc(Sc3ccc(NC(=O)C4CC4)cc3)n2)[nH]n1	95.5%
O=C1Nc2ccc(Br)cc2/C1=C/c1cc2c([nH]1)CCCC2	82.4%
O=c1c(-c2ccc(F)cc2)c(-c2ccncc2)[nH]n1-c1ccc(Cl)cc1	91.7%
O=C(c1cc2cc(O)ccc2[nH]1)c1cc2cc(O)ccc2[nH]1	85.5%
Clc1ccc(Nc2nnc(Cc3ccncc3)c3ccccc23)cc1	102%
O=c1cc(N2CCOCC2)oc2c(-c3ccccc3)cccc12	107%
CCN(CC)CCCCN1c2ccccc2Oc2ccc(Cl)cc21	99.6%
O=C(c1ccccc1)c1ccc(N2CCOCC2)cc1O	102%
NC(=O)c1cccc(-c2cc(Nc3ccc(OC(F)(F)F)cc3)ncn2)c1	94.6%

Block 3 — cell line: mouse MPNST tumor cells; technique: high-content nuclear imaging; refers to: cell number; tested at: 10 µM; time: 12 h; setting: mean of 2 replicates; relative to: plate mean; direction: higher = more cells
SMILES	nuclei count
Nc1nc2n[nH]nc2c(=O)[nH]1	-4.41 z-score
CC[C@H](NC(=O)c1c(C)c(-c2ccccc2)nc2ccccc12)c1ccccc1	0.332 z-score
COc1ccc(S(=O)(=O)c2cc(OC)ccc2S(=O)(=O)c2ccc([C@H](C)NS(C)(=O)=O)cc2)cc1	0.731 z-score
CC(=O)Nc1nc2c(Oc3cc(-c4ccc(C(F)(F)F)cc4)ncn3)cccc2s1	0.413 z-score
O=C(c1ccc(Nc2nccc(-c3cc4ccccc4s3)n2)cc1)N1CCC(N2CCCC2)CC1	-4.91 z-score
COC(=O)c1c(-c2cc(OC)c(OC)c(OC)c2)c2ccnc(OCc3ncccn3)c2c(=O)n1Cc1ccnc(C)c1	1.55 z-score

Block 4 — technique: Incucyte 3D growth; tested at: 30 µM; direction: higher = more growth
Structure (SMILES): CC(C)(C(=O)O)[C@H](NC(=O)Cc1cccc(I)c1)c1ccc2oc(=O)[nH]c2c1
cell line	setting	spheroid area
A375	210 h	1.08e+08 a.u. and 1.24e+08 a.u. and 1.44e+08 a.u. and 1.27e+08 a.u. and 1.26e+08 a.u.
NCI-H1437	156 h	3.18e+07 a.u. and 3.58e+07 a.u. and 2.95e+07 a.u. and 4.25e+07 a.u. and 4.66e+07 a.u. and 3.05e+07 a.u.
KP-4	66 h	1.69e+07 a.u. and 1.59e+07 a.u. and 1.38e+07 a.u. and 1.41e+07 a.u. and 1.46e+07 a.u. and 1.36e+07 a.u.
NCI-H358	30 h	3.71e+06 a.u. and 3.77e+06 a.u. and 3.93e+06 a.u. and 3.72e+06 a.u. and 3.8e+06 a.u. and 4.76e+06 a.u.
PC-9	234 h	1.85e+09 a.u. and 1.9e+09 a.u. and 1.84e+09 a.u. and 1.79e+09 a.u. and 1.86e+09 a.u.

Excerpt of the above (block 2):
Compound	remaining activity
COc1cccc(-c2cc(=O)c3ccccc3o2)c1N	91.2%
Cc1cc(Nc2cc(N3CCN(C)CC3)nc(Sc3ccc(NC(=O)C4CC4)cc3)n2)[nH]n1	95.5%
